Assay results from different studies.
Each numbered part is a random draw from the data of one study; scales do not carry over between parts. Changes are numbered by the printed parent chain.

Study 1
Target: CCNB2, cyclin fold, Cln2 fusion (human)
Method: yeast growth competition, sequencing
Medium: yeast
Notes: strong parent motif
Reference: not given
Direction: higher = stronger binding
Quantity: normalised enrichment score
Parent: BRCA2 docking peptide (human); PSIKRNLLNEFDR; partner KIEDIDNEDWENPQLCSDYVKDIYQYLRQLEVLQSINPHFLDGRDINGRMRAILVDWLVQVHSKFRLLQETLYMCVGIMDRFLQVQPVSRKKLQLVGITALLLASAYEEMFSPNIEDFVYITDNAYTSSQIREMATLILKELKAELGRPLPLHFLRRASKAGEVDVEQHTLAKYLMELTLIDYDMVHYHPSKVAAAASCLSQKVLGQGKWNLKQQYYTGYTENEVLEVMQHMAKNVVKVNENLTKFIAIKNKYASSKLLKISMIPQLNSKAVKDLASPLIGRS
Substitution = R13Q; value = 3.78
Substitution = S2K; value = 3.06
Substitution = N6I; value = 0.807
Substitution = N6M; value = 0.511
Substitution = L8I; value = 3.54
Substitution = I3M; value = 0.944
Substitution = R5M; value = 1.92
Substitution = R13V; value = 3.71
Substitution = F11E; value = -0.315
Substitution = R5D; value = 0.126

Study 2
Target: Fragile X messenger ribonucleoprotein 1, C-terminal low-complexity region (Fmr1, Mus musculus, UniProt P35922)
Method: RNA Bind-n-Seq
Molecule type: RNA
Medium: in vitro
Concentration: 200 nM
Notes: whole 134-nt RNA, ends assumed
With: 150 mM LiCl
Reference: input library
Direction: higher = stronger binding
Quantity: log2 enrichment
Library: 7-deaza-guanosine replaces G
Sequence = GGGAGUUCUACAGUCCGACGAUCAGUCCUGUGCUACACAUCGUAUGUACCGAAUCAAAUUUAAAUUUUUUUAAAUUUAAAAAAGUAUUAUGUUACGCCGUUCGGAUCUGCACUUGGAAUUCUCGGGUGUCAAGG; value = -3.24
Sequence = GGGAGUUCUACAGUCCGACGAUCAAGUCCUGUGCUACACAUCGUAUGUACCGAAUCGGGAAAAAGGGAGGGUUUUUGGGAAAGUAUUAUGUUACGCCGUUCGGAUCUGCACUUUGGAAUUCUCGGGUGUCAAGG; value = -1.8
Sequence = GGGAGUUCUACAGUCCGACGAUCUCAAGUCCUGUGCUACACAUCGUAUGUACCGAAUCGGGUGGGUUUUUGGGAGGGAAAGUAUUAUGUUACGCCGUUCGGAUCUGCACUUCCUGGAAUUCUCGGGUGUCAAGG; value = -0.545
Sequence = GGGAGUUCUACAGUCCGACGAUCUAACUUUAGAGGAGGAUCUGAUGGAUAUGGCAGUGGACGUGGAUUUGGGGAUGGGUAUAAUGGGUAUGGAGGAGGACCUGGAGGUGGCAAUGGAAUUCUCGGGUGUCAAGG; value = 1.43
Sequence = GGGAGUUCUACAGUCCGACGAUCGCAGGAAGUAAAAACAAAUGGAAAUGCUUCGGAUAGUGGCAGGGGUGGGGGUUGCUAAAGAAAGGGUGGGAUGGGAGUGGGUAAAGAGUUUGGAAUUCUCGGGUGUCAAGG; value = 1.8
Sequence = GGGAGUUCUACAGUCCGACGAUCCUCAAGUCCUGUGCUACACAUCGUAUGUACCGAAUCGGGCCGGCCGGGGCCGGGAAAGUAUUAUGUUACGCCGUUCGGAUCUGCACUUCCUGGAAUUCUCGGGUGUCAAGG; value = 0.864
Sequence = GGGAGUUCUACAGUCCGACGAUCCAAGUCCUGUGCUACACAUCGUAUGUACCGAAUCAAAUUUAAAUUUAAACCCAAAAAAGUAUUAUGUUACGCCGUUCGGAUCUGCACUUCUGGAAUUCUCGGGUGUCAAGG; value = 0.95
Sequence = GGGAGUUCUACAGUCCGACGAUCGUCCUGUGCUACACAUCGUAUGUACCGAAUCGGAAAAAAAGGAAAAAGGAAAAAAAGGAAAGUAUUAUGUUACGCCGUUCGGAUCUGCACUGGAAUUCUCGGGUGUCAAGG; value = -0.682

Study 3
Target: RING finger protein unkempt homolog, zinc fingers 1-6, SBP tag (UNK, Homo sapiens, UniProt Q9C0B0, residues 30-357)
Chain of UniProt Q9C0B0 (30-357, looked up): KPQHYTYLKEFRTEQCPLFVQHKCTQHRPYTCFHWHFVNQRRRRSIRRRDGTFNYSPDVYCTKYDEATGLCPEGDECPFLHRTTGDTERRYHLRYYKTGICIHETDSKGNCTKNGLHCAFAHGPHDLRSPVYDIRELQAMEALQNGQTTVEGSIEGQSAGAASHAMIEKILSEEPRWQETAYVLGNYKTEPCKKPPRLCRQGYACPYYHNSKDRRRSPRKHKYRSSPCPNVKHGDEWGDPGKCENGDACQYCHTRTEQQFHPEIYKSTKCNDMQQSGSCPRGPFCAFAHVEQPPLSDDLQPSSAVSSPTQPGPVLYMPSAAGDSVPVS
Method: RNA Bind-n-Seq
Molecule type: RNA
Medium: in vitro
Concentration: 100 nM
Notes: RNA with constant flanks, vertebrate orthologous sites, ends assumed
Reference: input RNA pool
Direction: higher = stronger binding
Quantity: bound/input enrichment
Sequence = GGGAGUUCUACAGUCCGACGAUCCUGCUCUACGGGCCCCGCAGAGUGGAGAUCAUGGAAGAGGAAAGUGAACAGUAAUCUCCGUAGUAUUUAUGCUUAGGUGUGGAAUGAAUGUUACUUGUUGAUCACUUGUAUAAUCCAGAGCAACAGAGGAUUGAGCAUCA; value = 0.51 ratio
Sequence = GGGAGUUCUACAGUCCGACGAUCAAAUUUAUUUCAUGCCCUGGACUCCCUACCGCACUGAUACUUUAAUAGAGUAUGCUUCUAUAGAAGAUUUCCAAAACAGUCGCCAGACAACAACAUACAAACUUCCAAACCGAGUAGAUGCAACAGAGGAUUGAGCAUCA; value = 1.07 ratio
Sequence = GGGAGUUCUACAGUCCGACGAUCAUAAUCGCUCUAACUGUAUUCUGAAUAAAGUGUAACAUUGUGUAGCCUUUUUGUAUAAACUAGACAAAUAGAAAUGGUCCAAUUAGUUUCCUUUUUAAUAUGCUUAAAAUAAGCAGGUGGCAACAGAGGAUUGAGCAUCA; value = 2.04 ratio
Sequence = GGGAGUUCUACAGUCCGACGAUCACUAGUGCUUAAGCUAUCAACAAUUCUAAAAUGCUAUUUAUUUGUCUUUGGUUUUGUACAUAGUAAUACCAACCUCAUAUUGUUGCUGAAAUUUUGUGGGUUUUUUUGUGUAUGUUUUUUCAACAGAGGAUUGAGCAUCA; value = 0.982 ratio
Sequence = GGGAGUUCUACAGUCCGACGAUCGCAAUGAAAAAACAGCCCUUCUCCCAGCCCCCUUUUCACUAGGAGAUACAAAAGUUACCAUAGAAGAGCAAUUAAACUCAAUAAAUUUAUCUUUUCAGGAUGAUCCAGACUCCAGCACCACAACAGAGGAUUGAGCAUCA; value = 1.41 ratio
Sequence = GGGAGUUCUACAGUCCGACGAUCACAGUCCUCUACUUAAACUGGUAUUUUCAAACAAUAGGAAGCUUUUUUUUUUUUUUACAGUUUAGUAUCUUGUUUCUACAUGGAAGACUAAACAUGCUUAUAGCUAAAUGUGGUCUUUGCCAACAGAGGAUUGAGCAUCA; value = 1.19 ratio
Sequence = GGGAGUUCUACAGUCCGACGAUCUCUGUGUAGCAAUUAGAGUGGGUGCUCCCACUCAUCCUGUCCCAAGGAAGAAAGCUCAAAUAGGUGCUUUACACGCCUGAUUAUGCUGUUCUGUUUCUGUUUUCUAUUUUUACAUACACACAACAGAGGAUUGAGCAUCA; value = 0.689 ratio
Sequence = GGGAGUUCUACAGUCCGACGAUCGUUGUGACCCCUUUAACAUACAUAAAAAACUAGCCAAAAAAAACUUGCAUGUAAUUGACUUAGAUGAUGCCACUUUUCUGAGUGCAAAAUUUGGCAGACAGCUUGUACCUGGUUGGAAGCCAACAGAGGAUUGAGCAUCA; value = 0.99 ratio

Single results of other studies
Substance = PhoQ, residues 284 288 289 292 302 303 SNGLAW; target = PhoP, residues 12 14 15 18 19 LHATL (Escherichia coli, UniProt P23836); test = Sort-seq, refers to: YFP reporter; test system = E. coli; setting = PhoQ-PhoP variant library, with: 10 µM Mg2+; how to read = reference: high Mg2+ state, higher = stronger signaling; quantity = fold induction; value = 9.86

A few entries again (study 1):
Substitution = R5M; value = 1.92
Substitution = S2K; value = 3.06
Substitution = R13Q; value = 3.78
Substitution = N6M; value = 0.511
